# Measured values gathered from unrelated publications.
# A part holds a random share of what one study measured. Positions count from the first letter of the parent shown.

# Set 1 — method: DHFR PCA, deep sequencing; sample: yeast; with: (+)-ABA 0.0091 µM; reference: wild-type fitted maximum; direction: higher = stronger binding
# Target: ABI1, truncated, D143A, DHFR fusion (Arabidopsis thaliana)
# Notes: methotrexate growth selection, single substitutions
# Starting sequence: PYL1, truncated, DHFR fusion (Arabidopsis thaliana); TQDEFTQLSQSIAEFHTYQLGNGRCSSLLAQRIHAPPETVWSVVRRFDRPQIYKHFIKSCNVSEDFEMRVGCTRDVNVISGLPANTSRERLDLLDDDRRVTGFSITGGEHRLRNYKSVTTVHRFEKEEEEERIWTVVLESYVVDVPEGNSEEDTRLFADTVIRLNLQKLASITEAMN
Variant,relative binding score
G81M,0.516%
S150L,10.2%
R46Y,-11.4%
E38L,-0.838%
E67L,26.4%
D75N,22.7%
I12S,-4.52%
D144R,-2.27%
T160M,5.68%
E130S,56.1%
T73P,-0.169%
E151Y,9.83%
R98I,-7.5%

# Set 2 — method: EMSA with sequencing; form: double-stranded DNA, one strand shown; sample: in vitro; concentration: 10 and 20 nM; reference: negative control set to 0; direction: higher = stronger binding
# Target: Hepatocyte nuclear factor 3-alpha (Foxa1, Mus musculus, UniProt P35582, residues 1-468, full length assumed)
# UniProt P35582, sequence (whole entry, looked up): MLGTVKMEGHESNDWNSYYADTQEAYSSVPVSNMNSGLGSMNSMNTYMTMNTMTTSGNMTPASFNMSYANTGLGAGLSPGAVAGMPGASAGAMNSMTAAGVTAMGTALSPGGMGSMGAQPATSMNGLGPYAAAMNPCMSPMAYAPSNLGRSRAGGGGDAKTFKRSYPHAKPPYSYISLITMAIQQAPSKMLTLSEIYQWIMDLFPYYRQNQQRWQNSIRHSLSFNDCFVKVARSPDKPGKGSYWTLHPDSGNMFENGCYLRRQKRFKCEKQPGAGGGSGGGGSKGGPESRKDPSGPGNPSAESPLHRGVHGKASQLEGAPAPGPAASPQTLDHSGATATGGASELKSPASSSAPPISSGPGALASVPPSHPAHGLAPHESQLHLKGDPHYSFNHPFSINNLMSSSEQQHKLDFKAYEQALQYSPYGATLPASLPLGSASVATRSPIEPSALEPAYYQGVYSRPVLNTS
# Notes: whole designed probe, mean of two concentrations, ends assumed
# All sequences stand within: GTGAGCGGTGCCCATTGATGGGGAAC … TTTCACTGGGATCGTGGGGAC
Sequence,normalised bound fraction [ratio]
TTTAAACTTTTGTAAAAATGTTCAAAGAGAATCTGTTGTTAGAAGTTTAACATTCTGATTTAACTGTTTTGAATACGAAAAATACAAACTCAAAGTAATCTTCTAAAATATAAGGCAAATCTATCCATATAGAAAAGGAATAAGAAGGTACTGACCAATGAAGTTGAAACAACACTGTCATATTAATCTCAAA,-0.0194
ACTCAAATTCTATTTTGACTGTTGAGAATCAAATACATCTTTAATGGGTTAATGTTGGCAATAATCGAAAGTGTTTTAGCTAACATTCATGTGTAATCTAGGACAAACATTGGCAAATGTGATAATTACTACATAAGTTGTAAATTCATATGGAAAATGCATTTACTAATTCAGTCAGGGATAGGCTGTGATG,0.0938
TCATGTAGACCCCGATGGACTAGCCAGAGAGCATCACAATGGGCCCCCAGAGTTCTCTCAGTGGCCAGTCTATGGACCTTCTTGATGGTCTGTGTTTACATTGTCATGATGCCATATGGAAATTTAATGGAACACATTCACAATTTATGCCGCTAAACAAGAAACGCCATTATCCTGTTAGTCTTTAAAACCA,0.372
GGGTCAAGTGGCCACCCAGAGAGCTGATGCATGCTGATGTGAGACTCCTACAAGCCATGAGACAAAACAGACTTATAAACATGTAACGTGTTGAGATGACACAAGGAACCAAGCAGTGATGAGGAATGTGCCAATGGCTGAGATGGAGCAACCCACTTGCTGAGTCTTGCAAAAGCAACCTCCCTAGATGAAC,-0.0323
CATTTGCCTCCGTCCCCACCCCCAGCCTGCTGCCTCTCAGGTTCACACTTCCTGGGCTCAGAGTTTCATCCTGAGGCAGATGGCTCAGCCAGAGCAATCTGAGACAGCACTAAAGTCATCTAAACCAGAGAGCAAGCAGCGCAGGTGACGTGGAAAAGAAAACTTGGAAGCCACAACAAAGGCATGTGGGCTG,-0.0616

# Set 3 — target: CCNA1, cyclin fold, Cln2 fusion (human); method: yeast growth competition, sequencing; sample: yeast; notes: weak parent motif; reference: not given; direction: higher = stronger binding
# Starting sequence: WEE1 docking peptide (human); HKTFRKLRLFDTP
Variant,normalised enrichment score
HKTFRKLRIFDTP [L9I],0.353
HKTFRKLHLFDTP [R8H],0.125
HKTFRKLRLFDTT [P13T],0.279
HKTFDKLRLFDTP [R5D],0.0879
HKTFRKLRLFATP [D11A],0.192
HKTFRHLRLFDTP [K6H],0.158
HPTFRKLRLFDTP [K2P],0.218
HKGFRKLRLFDTP [T3G],0.367
HKTFRFLRLFDTP [K6F],-0.312
HKTFRKLRLFDTC [P13C],0.382
HKTFRKLDLFDTP [R8D],0.218
HKTFRKLRLFDTK [P13K],0.28
HKTFRKLALFDTP [R8A],0.248
HKTFRKLRPFDTP [L9P],0.158

# Set 4 — method: competition protein-binding microarray; form: double-stranded DNA, one strand shown; sample: in vitro; concentration: 2 µM; with: Pho4 competitor, 0.05 µM; direction: higher = stronger binding; all sequences stand within: … GTCTTGATTCGCTTGACGCTGCTG
# Target: Centromere-binding protein 1, full length, His-tagged (CBF1, Saccharomyces cerevisiae, UniProt P17106, residues 1-351)
# UniProt P17106, sequence (whole entry, looked up): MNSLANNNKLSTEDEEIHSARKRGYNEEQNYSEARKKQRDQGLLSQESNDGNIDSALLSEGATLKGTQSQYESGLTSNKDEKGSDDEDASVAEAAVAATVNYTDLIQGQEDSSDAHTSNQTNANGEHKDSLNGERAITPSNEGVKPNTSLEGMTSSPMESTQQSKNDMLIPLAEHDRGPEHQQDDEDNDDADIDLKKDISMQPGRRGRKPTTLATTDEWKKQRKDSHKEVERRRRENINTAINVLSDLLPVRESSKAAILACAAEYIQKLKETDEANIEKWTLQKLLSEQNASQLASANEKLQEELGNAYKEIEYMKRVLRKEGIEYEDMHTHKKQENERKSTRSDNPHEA
# Notes: whole 60-bp probe, lowest competitor level
Sequence,fluorescence intensity
CGTCCTAGCGATTGACGAGTGGGTGCCATGAGGAAG,68 a.u.
AAATTACTAAGTTGTGCTGTGGGTGACGCCGTATGA,61.8 a.u.
GAAGAACAAATTTTCCACATGCTTGTGCCTGCTTTA,78.1 a.u.
CTTCTGTAAATTTGACCAGTGGGTGGACGCGCCCCG,73.1 a.u.
GTCTTGTCTCATTGTCACACTACTTTCCCCACTTCA,126 a.u.
CTAACGAAGGTTTGTTTTGTGGGTGACAAGCCAAGT,73.6 a.u.
CTTTCCCGATCTTGTCACGTGTTTTTAGCACATTTG,6020 a.u.
CGGCAAGAAAAAGATCGTGTGTCTCTAGAGCAGCTT,67.2 a.u.
TGCGCAACAACTTGCCACGTGTTTTTATGTCTAGAA,1510 a.u.
CTTCTGTAAATTTGAAGAGTGGGTGGACGCGCCCCG,84.6 a.u.
AAAGCGGTAATTTGAAAAGTGGGTGCAGATATCTAT,70.9 a.u.
CGGGGTTAAGTTTGCCATGTGGGTGGCTTGCAGCAG,73.5 a.u.
CTGAACAATATGTACATCGTGTCGGTAGAGCTGGTA,65.2 a.u.
CAGGCTGGTCGACCTCACGGGCGCTGATCGCGGCAA,55.5 a.u.
AGGTCTTTGCGTAGGATTGTATAAGCCCGGCCATTG,55.5 a.u.
CTTTCCCGATCTTCGCACGTGTTTTTAGCACATTTG,1210 a.u.
CTTCTGTAAATTTTTCACGTGCGATGACGCGCCCCG,724 a.u.
CGGGGTTAAGTTTGCATCGTGGGTGGCTTGCAGCAG,75.6 a.u.

# Set 5 — method: protein-binding microarray; form: double-stranded DNA, one strand shown; sample: in vitro; concentration: 940 nM top; notes: 60-bp whole probe; with: salmon DNA 0.4 mg/ml; reference: random background probes; direction: higher = stronger binding; all sequences stand within: GCCTAGCAC … GTCTTGATTCGCTTGACGCTGCTG
# Target: Interferon regulatory factor 5, full length, phosphomimetic (IRF5, Homo sapiens, UniProt Q13568-2, residues 1-514, S451D/S453D/S456D/S462D)
Sequence,fitted relative affinity [z-score]
GACGGTATCCTTCTCTTGACGTGCTAG,0.304
TCAGATCACCGATTTCCTACTGTGCTA,-0.0899
ATGACTCTGCCTCTAACTGCGTGCTAG,-0.109
GACGAACTGAGTATCTAGACGTGCTAG,-0.155
GCCATTGTGGGTCTTGCAGAGTGCTAG,-0.587
TTAGGTATCGGTTTCGGTAAGTGCTAG,13.6
TTATGACTGGACACTGGGTTAGTGCTA,0.0178
TTAGAACTGCTTATCCTTTAGTGCTAG,0.43
GATGGTTCCCTTTTCCTGACGTGCTAG,0.822
TTAGGACTGGGGCCTGGGTTAGTGCTA,-0.546
GACGATATCACACTGGAGACGTGCTAG,-0.149
GACGATATCAAACTGGAGACGTGCTAG,-0.407
GACGATTTCAGTTGCGAGACGTGCTAG,0.313
GACGGACTGGGCCTCGGGACGTGCTAG,-0.723
CCAGCTCTTTCGTTACTTCCTGTGCTA,2.41
TCAACATTGCACAATCTTACTGTGCTA,0.393
TAAAATTTTGCTTCTAGAACGTGCTAG,-0.138
AACTTTTTTTTTTCCCTGAAGTGCTAG,1.2
TTAGAACTGAGAATCGATTAGTGCTAG,0.133
GTCACATTGCACAATCTTAATGTGCTA,0.0505
TTAGACTTCGGGTATCGATTAGTGCTA,2.46
GACTGTTTCCTTTCCCTGACGTGCTAG,1.72
TTAGGTATCCTTTTCCTTTAGTGCTAG,0.717
GAAGATTCCAGTTTCGAGACGTGCTAG,4.01
TTAGGTTCCGACACTGGGTTAGTGCTA,0.505
